Assay results gathered from unrelated publications.
± marks the error that the study gave.

Compound	assay	test system	conditions	logD
O=C(CN1C(=O)C2(CCN(C(=O)c3cnc4[nH]ncc4c3)CC2)c2c(Br)cccc21)NCC(F)(F)F	–	–	pH 7.4	2.6
COc1ccc2c3c1O[C@H]1[C@@H](O)CC[C@H]4[C@@H](C2)N(CCc2ccccc2)CC[C@@]341	–	octanol/buffer	1 h, pH 7.4	2.19
COc1ccccc1C(NS(=O)(=O)c1cc2ccc(O)nc2cc1Cl)C(=O)N(CC(=O)NCCn1cc(COCCOCCOCCOCCNc2cccc3c2C(=O)N(C2CCC(=O)NC2=O)C3=O)nn1)Cc1cccs1 (mixture of isomers)	fast-gradient HPLC	–	pH 7.4	2.5
N#Cc1cccc2c1C1(CCN(C(=O)c3cnc4[nH]ncc4c3)CC1)C(=O)N2CC(=O)NCC(F)(F)F	–	–	pH 7.4	2.6
COc1ccccc1[C@@H](NS(=O)(=O)c1cc2ccc(O)nc2cc1Cl)C(=O)N(CC(=O)NCCn1cc(COCCOCCOCCOCC(=O)N[C@H](C(=O)N2C[C@H](O)C[C@H]2C(=O)NCc2ccc(-c3scnc3C)cc2)C(C)(C)C)nn1)Cc1cccs1	fast-gradient HPLC	–	pH 7.4	2.3
CC[C@H](C)[C@@H]1NC(=O)[C@H](CCSC)NC(=O)[C@H](Cc2c[nH]c3ccccc23)NC(=O)[C@H](CC(N)=O)NC(=O)[C@@H](NC(=O)CCOCCOCCOCCNC(=O)CN2CCN(CC(=O)O)CCN(CC(=O)O)CC2)CSSC[C@@H](C(=O)O)NC(=O)[C@H](CCC(=O)O)NC(=O)[C@H](CCCCN)NC(=O)[C@H](CC(N)=O)NC1=O [gallium-68 labelled]	shake-flask	1-octanol/PBS	pH 7.4	-1.36 ± 0.52
COc1ccc2c3c1O[C@H]1C(=O)CC[C@@]4(O)[C@@H](C2)N(CC2CCC2)CC[C@]314	–	octanol/buffer	1 h, pH 7.4	1.68
CN[C@@H](C)C(=O)N[C@H](C(=O)N1C[C@@H](NC(=O)COCCOCCOCc2cn(CCNC(=O)CN(Cc3cccs3)C(=O)[C@H](NS(=O)(=O)c3cc4ccc(O)nc4cc3Cl)c3ccccc3OC)nn2)C[C@H]1C(=O)N[C@@H]1CCCc2ccccc21)C1CCCCC1	fast-gradient HPLC	–	pH 7.4	2.5
O=C(CN1C(=O)C2(CCN(C(=O)c3cnc4[nH]ncc4c3)CC2)c2c(F)cccc21)NCC(F)(F)F	–	–	pH 7.4	1.97
COc1ccccc1[C@@H](NS(=O)(=O)c1cc2ccc(O)nc2cc1Cl)C(=O)N(CC(=O)NCCn1cc(COCCCCC(=O)N[C@H](C(=O)N2C[C@H](O)C[C@H]2C(=O)NCc2ccc(-c3scnc3C)cc2)C(C)(C)C)nn1)Cc1cccs1	fast-gradient HPLC	–	pH 7.4	2.4
N#Cc1c(Cl)ccc2c1C1(CCN(C(=O)c3cnc4[nH]ncc4c3)CC1)C(=O)N2CC(=O)NCC(F)(F)F	–	–	pH 7.4	2.65
CN1CC[C@]23c4c5ccc(O)c4O[C@H]2[C@H](O)C=C[C@@]3(O)[C@H]1C5	–	octanol/buffer	1 h, pH 7.4	-0.82
Cc1n[nH]c(C)c1CCCOc1cc(OCCCCCCNCCOCCOCCn2cc(CNc3ccc(C(=O)O)cc3)nn2)cc(C(=O)O)c1	–	–	pH 7.4	-1.6
O=C1CC[C@@]2(O)[C@H]3Cc4ccc(O)c5c4[C@@]2(CCN3CCc2ccccc2)[C@H]1O5	–	octanol/phosphate buffer	1 h, pH 6.89, ionic strength 0.15 M	1.47
O=C(CN1C(=O)C2(CCN(C(=O)c3ccc4[nH]ncc4n3)CC2)c2c(Br)cccc21)NCC(F)(F)F	–	–	pH 7.4	2.72
COc1ccc2c3c1O[C@H]1C(=O)CC[C@@]4(O)[C@@H](C2)N(CCc2ccccc2)CC[C@]314	–	octanol/phosphate buffer	1 h, pH 5.74, ionic strength 0.15 M	1.24
COc1ccccc1C(NS(=O)(=O)c1cc2ccc(O)nc2cc1Cl)C(=O)N(CC(=O)NCCn1cc(COCCCCCNc2cccc3c2C(=O)N(C2CCC(=O)NC2=O)C3=O)nn1)Cc1cccs1 (mixture of isomers)	fast-gradient HPLC	–	pH 7.4	2.8
